Assay results from different studies.
Each line is one published result; not all experiments were run side by side. pKd: −log10 of the molar value.
T1: RNA aptamer, streptomycin-binding; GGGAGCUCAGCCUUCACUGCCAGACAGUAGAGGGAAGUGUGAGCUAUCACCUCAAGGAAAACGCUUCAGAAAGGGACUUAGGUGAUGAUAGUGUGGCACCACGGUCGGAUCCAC
T2: RNA aptamer U54G; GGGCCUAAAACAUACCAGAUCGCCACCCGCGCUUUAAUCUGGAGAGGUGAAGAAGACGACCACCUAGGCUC
T3: RNA aptamer; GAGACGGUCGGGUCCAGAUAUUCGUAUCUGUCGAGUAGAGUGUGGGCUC
T4: RNA aptamer GAA^A junction to GUG^A; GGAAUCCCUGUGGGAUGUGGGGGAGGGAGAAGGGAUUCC
T5: RNA aptamer A13U; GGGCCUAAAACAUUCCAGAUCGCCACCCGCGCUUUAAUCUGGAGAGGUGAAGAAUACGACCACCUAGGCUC
T6: RNA aptamer; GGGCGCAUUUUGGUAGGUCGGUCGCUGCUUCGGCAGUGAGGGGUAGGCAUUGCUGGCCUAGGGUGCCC
T7: RNA aptamer; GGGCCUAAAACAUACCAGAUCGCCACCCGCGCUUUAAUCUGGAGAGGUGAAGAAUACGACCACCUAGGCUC
T8: RNA aptamer; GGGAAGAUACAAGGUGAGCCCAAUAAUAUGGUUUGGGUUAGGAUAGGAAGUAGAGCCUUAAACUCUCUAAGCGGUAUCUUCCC
T9: RNA aptamer; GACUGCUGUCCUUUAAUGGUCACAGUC

SMILES | target | assay | conditions | measurement | result
CN[C@@H]1[C@H](O[C@H]2[C@H](O[C@H]3[C@H](O)[C@@H](O)[C@H](N=C(N)N)[C@@H](O)[C@@H]3N=C(N)N)O[C@@H](C)[C@]2(O)C=NNC(=O)CCOCCOCCOCCOCCNC(=O)CCCC[C@@H]2SC[C@@H]3NC(=O)N[C@@H]32)O[C@@H](CO)[C@H](O)[C@H]1O | T1, RNA aptamer, streptomycin-binding | SPR | apparent | pKd | 6.88
CN(C)[C@@H]1C(=O)C(C(N)=O)=C(O)[C@@]2(O)C(=O)C3=C(O)c4c(O)cccc4[C@@](C)(O)[C@H]3C[C@@H]12 | T2, RNA aptamer U54G | fluorescence titration | pH 7.5, 25 °C, MgCl2 10 mM | pKd | 8.58
CC1=N/C(=C\c2cc(Br)c(OC(=O)c3ccccc3SSc3ccccn3)c(Br)c2)C(=O)N1C | T3, RNA aptamer | competition with tracer, competitor, fluorescence quenching |  | binding | binds weakly
CN1C=C/C(=C/C=C/c2sc3ccccc3[n+]2CC(=O)NCCOCCOCCOCCNC(=O)CCCC[C@@H]2SC[C@@H]3NC(=O)N[C@@H]32)c2ccccc21 | T4, RNA aptamer GAA^A junction to GUG^A | fluorescence titration |  | binding | binds weakly
CN(C)[C@@H]1C(=O)C(C(N)=O)=C(O)[C@@]2(O)C(=O)C3=C(O)c4c(O)cccc4[C@@](C)(O)[C@H]3[C@H](O)[C@@H]12 | T5, RNA aptamer A13U | fluorescence titration | pH 7.5, 25 °C, MgCl2 10 mM | pKd | 6.27
Nc1nc2c(ncn2[C@@H]2O[C@H](COP(=O)(O)OP(=O)(O)OP(=O)(O)O)[C@@H](O)[C@H]2O)c(=O)[nH]1 | T6, RNA aptamer | ITC | pH 6.5, 20 °C, NaCl 50 mM | binding | binds weakly
CN(C)[C@@H]1C(=O)C(C(N)=O)=C(O)[C@@]2(O)C(=O)C3=C(O)c4c(O)cccc4C[C@H]3C[C@@H]12 | T7, RNA aptamer | fluorescence titration | pH 7.5, 25 °C, MgCl2 10 mM | pKd | 7.65
CC1=N/C(=C\c2ccc(OCc3ccc(B(O)O)cc3)c(F)c2)C(=O)N1C | T8, RNA aptamer | competition with tracer, competitor, fluorescence quenching |  | binding | binds weakly
NC[C@@H]1O[C@H](O[C@H]2[C@@H](O)[C@H](O[C@@H]3[C@@H](O)[C@H](N)C[C@H](N)[C@H]3O[C@H]3O[C@H](CN)[C@@H](O)[C@H](O)[C@H]3N)O[C@@H]2CO)[C@H](N)[C@@H](O)[C@@H]1O | T9, RNA aptamer | ITC | NaCl 200 mM | binding | binds weakly

Some of these lines once more:
SMILES | target | assay | conditions | measurement | result
CN(C)[C@@H]1C(=O)C(C(N)=O)=C(O)[C@@]2(O)C(=O)C3=C(O)c4c(O)cccc4[C@@](C)(O)[C@H]3[C@H](O)[C@@H]12 | T5, RNA aptamer A13U | fluorescence titration | pH 7.5, 25 °C, MgCl2 10 mM | pKd | 6.27
